# Measurements collected from several papers.
# Every numbered part comes from another study and shows a few of its results, in no order.
# UniProt P15056, sequence (whole entry, unmodified, looked up): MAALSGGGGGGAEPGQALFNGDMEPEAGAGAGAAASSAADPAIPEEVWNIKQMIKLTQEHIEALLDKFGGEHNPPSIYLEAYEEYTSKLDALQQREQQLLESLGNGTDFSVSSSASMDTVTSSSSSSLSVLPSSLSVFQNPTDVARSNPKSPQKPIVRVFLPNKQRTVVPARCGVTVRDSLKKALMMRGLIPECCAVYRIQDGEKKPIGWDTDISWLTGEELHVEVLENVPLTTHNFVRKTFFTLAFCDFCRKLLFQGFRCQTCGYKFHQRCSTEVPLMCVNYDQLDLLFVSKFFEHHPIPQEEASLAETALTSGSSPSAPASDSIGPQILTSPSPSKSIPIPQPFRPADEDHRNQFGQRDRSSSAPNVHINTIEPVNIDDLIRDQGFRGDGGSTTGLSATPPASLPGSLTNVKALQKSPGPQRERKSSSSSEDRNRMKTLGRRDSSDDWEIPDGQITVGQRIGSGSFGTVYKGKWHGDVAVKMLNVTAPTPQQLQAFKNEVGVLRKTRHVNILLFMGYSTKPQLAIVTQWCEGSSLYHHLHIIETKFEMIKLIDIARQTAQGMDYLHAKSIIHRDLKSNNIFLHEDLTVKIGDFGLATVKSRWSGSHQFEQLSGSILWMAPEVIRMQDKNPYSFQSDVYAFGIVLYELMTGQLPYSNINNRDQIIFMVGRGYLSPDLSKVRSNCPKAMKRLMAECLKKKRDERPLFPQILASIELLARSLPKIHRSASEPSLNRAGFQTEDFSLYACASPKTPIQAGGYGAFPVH
# UniProt Q00535, sequence (whole entry, looked up): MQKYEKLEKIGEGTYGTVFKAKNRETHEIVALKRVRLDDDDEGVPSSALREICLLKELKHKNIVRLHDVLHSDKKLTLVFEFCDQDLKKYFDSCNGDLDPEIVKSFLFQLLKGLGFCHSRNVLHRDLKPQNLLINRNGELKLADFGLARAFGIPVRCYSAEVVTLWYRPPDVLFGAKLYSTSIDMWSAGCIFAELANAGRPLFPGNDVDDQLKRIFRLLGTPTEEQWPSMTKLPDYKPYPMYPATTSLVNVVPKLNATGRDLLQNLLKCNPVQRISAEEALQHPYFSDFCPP
# UniProt Q06418, sequence (whole entry, looked up): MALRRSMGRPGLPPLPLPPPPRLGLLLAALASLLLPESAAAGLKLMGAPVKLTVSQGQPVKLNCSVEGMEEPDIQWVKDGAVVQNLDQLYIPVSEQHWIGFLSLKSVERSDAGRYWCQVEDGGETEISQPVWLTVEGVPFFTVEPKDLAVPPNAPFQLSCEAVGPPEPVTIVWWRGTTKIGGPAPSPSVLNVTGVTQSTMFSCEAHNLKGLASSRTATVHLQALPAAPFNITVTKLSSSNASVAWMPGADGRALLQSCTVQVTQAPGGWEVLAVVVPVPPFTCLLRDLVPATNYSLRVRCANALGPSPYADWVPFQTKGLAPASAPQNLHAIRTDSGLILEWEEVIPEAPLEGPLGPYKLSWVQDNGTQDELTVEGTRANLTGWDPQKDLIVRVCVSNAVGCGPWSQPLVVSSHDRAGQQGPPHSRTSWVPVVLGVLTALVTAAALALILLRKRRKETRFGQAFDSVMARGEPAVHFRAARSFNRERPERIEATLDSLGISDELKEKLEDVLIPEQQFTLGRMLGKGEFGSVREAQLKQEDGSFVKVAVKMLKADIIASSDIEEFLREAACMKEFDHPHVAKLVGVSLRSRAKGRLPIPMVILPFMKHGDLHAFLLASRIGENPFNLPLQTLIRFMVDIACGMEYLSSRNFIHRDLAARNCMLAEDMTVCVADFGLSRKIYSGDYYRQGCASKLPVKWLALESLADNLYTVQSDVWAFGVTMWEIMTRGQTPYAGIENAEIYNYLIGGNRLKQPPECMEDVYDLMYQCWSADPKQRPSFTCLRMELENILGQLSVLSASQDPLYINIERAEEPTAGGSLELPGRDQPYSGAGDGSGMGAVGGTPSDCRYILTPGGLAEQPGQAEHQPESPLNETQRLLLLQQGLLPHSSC
# UniProt O23661, sequence (whole entry, looked up): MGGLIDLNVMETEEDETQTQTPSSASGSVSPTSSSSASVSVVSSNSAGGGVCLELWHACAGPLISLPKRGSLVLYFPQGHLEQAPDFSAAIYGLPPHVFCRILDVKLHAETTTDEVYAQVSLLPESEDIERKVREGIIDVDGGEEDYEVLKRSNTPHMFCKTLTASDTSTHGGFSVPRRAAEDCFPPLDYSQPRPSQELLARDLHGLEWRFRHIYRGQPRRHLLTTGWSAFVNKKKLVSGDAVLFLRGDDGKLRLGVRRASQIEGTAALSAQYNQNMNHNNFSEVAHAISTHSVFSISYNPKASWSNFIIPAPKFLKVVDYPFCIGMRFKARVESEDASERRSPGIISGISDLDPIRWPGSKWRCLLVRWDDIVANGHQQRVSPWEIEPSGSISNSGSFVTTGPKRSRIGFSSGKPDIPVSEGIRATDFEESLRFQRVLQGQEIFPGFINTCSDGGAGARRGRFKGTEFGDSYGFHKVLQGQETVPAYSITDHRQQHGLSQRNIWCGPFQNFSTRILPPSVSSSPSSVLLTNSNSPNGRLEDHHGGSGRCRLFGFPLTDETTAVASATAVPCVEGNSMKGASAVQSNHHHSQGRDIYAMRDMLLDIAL
# UniProt Q13882, sequence (whole entry, looked up): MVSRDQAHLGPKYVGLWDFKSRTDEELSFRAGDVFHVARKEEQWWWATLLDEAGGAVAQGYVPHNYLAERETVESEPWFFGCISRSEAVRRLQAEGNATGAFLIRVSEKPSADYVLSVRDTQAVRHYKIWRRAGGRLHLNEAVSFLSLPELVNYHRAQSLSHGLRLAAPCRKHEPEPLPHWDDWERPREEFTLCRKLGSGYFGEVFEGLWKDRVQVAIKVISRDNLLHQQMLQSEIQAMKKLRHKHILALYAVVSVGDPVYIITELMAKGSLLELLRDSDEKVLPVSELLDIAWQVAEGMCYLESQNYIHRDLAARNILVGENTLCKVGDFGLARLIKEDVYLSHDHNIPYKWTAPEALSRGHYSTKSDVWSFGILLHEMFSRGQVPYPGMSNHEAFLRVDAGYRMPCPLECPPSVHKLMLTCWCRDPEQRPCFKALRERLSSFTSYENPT
# UniProt Q8LAL2, sequence (whole entry, looked up): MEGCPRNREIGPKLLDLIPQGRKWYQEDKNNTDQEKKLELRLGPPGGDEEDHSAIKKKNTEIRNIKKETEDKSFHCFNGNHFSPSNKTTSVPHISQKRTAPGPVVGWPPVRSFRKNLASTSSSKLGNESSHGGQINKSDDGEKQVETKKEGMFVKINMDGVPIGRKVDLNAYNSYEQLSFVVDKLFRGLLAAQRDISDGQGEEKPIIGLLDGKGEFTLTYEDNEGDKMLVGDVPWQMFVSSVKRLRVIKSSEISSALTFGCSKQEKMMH

# Block 1 — technique: EMSA with sequencing; molecule type: double-stranded DNA, one strand shown; sample: in vitro; concentration: 10 and 20 nM; baseline: negative control set to 0; reading: higher = stronger binding
# Target: Hepatocyte nuclear factor 3-alpha (Foxa1, Mus musculus, UniProt P35582, residues 1-468, full length assumed)
# Setting: whole designed probe, mean of two concentrations, ends assumed
# Shared flanks, not repeated: GTGAGCGGTGCCCATTGATGGGGAAC … TTTCACTGGGATCGTGGGGAC
# Construct (chain): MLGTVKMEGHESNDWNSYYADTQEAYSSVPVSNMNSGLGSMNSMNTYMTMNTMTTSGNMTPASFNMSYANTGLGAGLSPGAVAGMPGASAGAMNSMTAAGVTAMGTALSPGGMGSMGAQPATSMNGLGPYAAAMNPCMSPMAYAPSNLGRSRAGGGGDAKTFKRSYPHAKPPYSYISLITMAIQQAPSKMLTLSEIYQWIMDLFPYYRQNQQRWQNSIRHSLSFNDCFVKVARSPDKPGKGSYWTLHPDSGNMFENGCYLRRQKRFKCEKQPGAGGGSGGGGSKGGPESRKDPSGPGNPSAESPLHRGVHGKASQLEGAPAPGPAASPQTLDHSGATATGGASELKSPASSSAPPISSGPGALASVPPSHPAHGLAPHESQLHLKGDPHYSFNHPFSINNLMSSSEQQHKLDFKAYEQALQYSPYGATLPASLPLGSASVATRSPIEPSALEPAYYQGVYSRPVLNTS
Sequence,normalised bound fraction [ratio]
ATAAAGCTTTTCACCTGACGCAGGATAATAGCGAGTGCATGTGTGCTGGTTTGTTTACTGTGAGTCTCTCAGAGGAAATCATGTGCATCTGTCTGTTTACTTTTCCGTGGAACCTAGATGCTCACCTCTAAAAATAATCTTGCTCGGTGTTAGAGTTTCTGTGACACAGAGGTACATACCTCACATGCTCTCC,0.488
GACAAACACATCTAGCTCCTAGCATGACTTCAGTGTGAAAAGGCTGGGCTTGGGAGAGCAGCAGGTAGACATGCCTATTAACATTGTGCTGCCAAGATTACTTTTTTTTAGATTACTTAAATCATGGACAGAAAGCCAAGTGTATAAGTGAAAACCCAAGGGACAATGACATGGGGTAGACTGCAGACCAAGA,-0.0276
GTAGGGGTAATGAAAAACTTCTTGTGCAAGCGGCCATTAATCAGCAGTGTAACATTGCATAACGTGCTCCAAAGCACGTGTCATGGGATCAGAGTACACAGCTGCATAATGCAGGCCAGTGTCTGTGCCTCCTGCTGACCTTTTCCAATGCAGAACTCGAACCATGTGATGCATGCTTCTTGCCAAGTCACTT,-0.0403
CACCGCGCTCGCACGGCTTTGTCCGTGCTACAAAGCAGCCTGTTAAACTATTGGAACTAATGCGCCGCAGCTGCGCGAGTGACTTCTGCTGCTTATGTACATAAGGGGGAGGGCTAAAGTCCTGTAACCATCAGATGCCTGCTGCTGGGTTGTTTGGCTAGTCTTTCCATTTGCTTATTCCTGAATCCAAAGG,0.311
ATCTTCCCCCTCTTCCTTGCCCCACCAGCTCACCTACGGGGGTTATTTGCACAAAGGAAAATAAATAAAGCCGGCATTCGTTAACGCAGTTCACGCGCATACTGCTGTTTGCTCTGGATGAATCATGGTCCTTTGGCGAGGCGTGGCTCCGGGAGAGCAAAGCACCGTGTCAGGGCCATGATCCGGGCTCGCC,0.392
GCATGAGCCGCATTGCCCAGCAAAAGCCTCTAAGTGGTGATTTGCTGTTTGGCCTGAGAGTAATTTGGAGGCTGTGGCTGAGTCAGCTTCTCTAGATGACTGAGCTGATGTCACTTTTGACCTTCATTGTTCCATAATTCCTTATGAAACTCTTCTGAAGCACTGAGAACCATCGACGGATCATATCAGCATG,-0.0551
GGCTCCAAACGGCTGAATCAGCATTTTCAGAAACAAAGTGTTCTAGGCCTGGCCTTTTAAACAGCAGCAACGAGCAAGTTGTGCAATAACGCATATTTACTCACGAGCTCTCCTTGTTTTGGTCTTTCCCCCCTCCCCCCCATCTCTTGAATGAAACTGGGCACCAAGTTTGCAAGAAAATATTCTTTCAAAC,0.0937
ATCCACGAACCTGGCCCTGTCTGGTAACCACAGTGAACCATCGCAAGATACAGCACTATAATGACTCACTGTGCCCAGTTGGGCTGGAAATGTGTCAACACTGGCACATCCTCAGGGACACGGAAGTGTACTTGTTTTTGGAGAGGGACTAGACCTTCATCCTTGAGGTGAAGAAGATTTTCTCTCCAGGGTG,0.0482

# Block 2 — concentration: 1 µM
# Structure (SMILES): CN(C(=O)c1ccccc1)c1cc(N(C)c2ccc3c(c2)CCc2ccc(C(=O)NCCN4CCOCC4)cc2C3=O)ccc1F
target,test,remaining binding
"CDC42BPA (Homo sapiens, UniProt Q5VT25)","cell-free assay, competition with immobilised ligand",100%
"GSK3A (Homo sapiens, UniProt P49840)","cell-free assay, competition with immobilised ligand",77%
"FLT3 (Homo sapiens, UniProt P36888, R834Q)","cell-free assay, competition with immobilised ligand",85%
"EPHB6 (Homo sapiens, UniProt O15197)","cell-free assay, competition with immobilised ligand",100%
"PIK3CB (Homo sapiens, UniProt P42338)","cell-free assay, competition with immobilised ligand",90%
"PIK3CA (Homo sapiens, UniProt P42336, E545K)","cell-free assay, competition with immobilised ligand",82%
"PTK6 (Homo sapiens, UniProt Q13882)","cell-free assay, competition with immobilised ligand",94%
"MAPK4 (Homo sapiens, UniProt P31152)","cell-free assay, competition with immobilised ligand",100%
"TEK (Homo sapiens, UniProt Q02763)","cell-free assay, competition with immobilised ligand",63%
"TYRO3 (Homo sapiens, UniProt Q06418)","cell-free assay, competition with immobilised ligand",100%
"CDK5 (Homo sapiens, UniProt Q00535)","cell-free assay, competition with immobilised ligand",95%
"MAP4K3 (Homo sapiens, UniProt Q8IVH8)","cell-free assay, competition with immobilised ligand",83%
"BMPR1A (Homo sapiens, UniProt P36894)","binding, competition with immobilised ligand",80%
"LIM domain kinase 1 (LIMK1, Homo sapiens, UniProt P53667)","cell-free assay, competition with immobilised ligand",100%
"BUB1 (Homo sapiens, UniProt O43683)","cell-free assay, competition with immobilised ligand",100%
"BRAF (Homo sapiens, UniProt P15056)","cell-free assay, competition with immobilised ligand",59%
"CDK11B (Homo sapiens, UniProt P21127)","cell-free assay, competition with immobilised ligand",100%
"MERTK (Homo sapiens, UniProt Q12866)","cell-free assay, competition with immobilised ligand",100%
"PIM1 (Homo sapiens, UniProt P11309)","cell-free assay, competition with immobilised ligand",88%
"DAPK2 (Homo sapiens, UniProt Q9UIK4)","cell-free assay, competition with immobilised ligand",86%
"BRAF (Homo sapiens, UniProt P15056, V600E)","cell-free assay, competition with immobilised ligand",100%
"Tyrosine-protein kinase ABL1, phosphorylated (ABL1, Homo sapiens, UniProt P00519, F317I)",binding,86%

# Block 3 — read-out: enzyme activity; action: inhibitor; concentration: 0.5 µM; baseline: control
# Target: Serine/threonine-protein kinase WNK3 (WNK3, Homo sapiens, UniProt Q9BYP7)
# UniProt Q9BYP7, sequence (whole entry, looked up): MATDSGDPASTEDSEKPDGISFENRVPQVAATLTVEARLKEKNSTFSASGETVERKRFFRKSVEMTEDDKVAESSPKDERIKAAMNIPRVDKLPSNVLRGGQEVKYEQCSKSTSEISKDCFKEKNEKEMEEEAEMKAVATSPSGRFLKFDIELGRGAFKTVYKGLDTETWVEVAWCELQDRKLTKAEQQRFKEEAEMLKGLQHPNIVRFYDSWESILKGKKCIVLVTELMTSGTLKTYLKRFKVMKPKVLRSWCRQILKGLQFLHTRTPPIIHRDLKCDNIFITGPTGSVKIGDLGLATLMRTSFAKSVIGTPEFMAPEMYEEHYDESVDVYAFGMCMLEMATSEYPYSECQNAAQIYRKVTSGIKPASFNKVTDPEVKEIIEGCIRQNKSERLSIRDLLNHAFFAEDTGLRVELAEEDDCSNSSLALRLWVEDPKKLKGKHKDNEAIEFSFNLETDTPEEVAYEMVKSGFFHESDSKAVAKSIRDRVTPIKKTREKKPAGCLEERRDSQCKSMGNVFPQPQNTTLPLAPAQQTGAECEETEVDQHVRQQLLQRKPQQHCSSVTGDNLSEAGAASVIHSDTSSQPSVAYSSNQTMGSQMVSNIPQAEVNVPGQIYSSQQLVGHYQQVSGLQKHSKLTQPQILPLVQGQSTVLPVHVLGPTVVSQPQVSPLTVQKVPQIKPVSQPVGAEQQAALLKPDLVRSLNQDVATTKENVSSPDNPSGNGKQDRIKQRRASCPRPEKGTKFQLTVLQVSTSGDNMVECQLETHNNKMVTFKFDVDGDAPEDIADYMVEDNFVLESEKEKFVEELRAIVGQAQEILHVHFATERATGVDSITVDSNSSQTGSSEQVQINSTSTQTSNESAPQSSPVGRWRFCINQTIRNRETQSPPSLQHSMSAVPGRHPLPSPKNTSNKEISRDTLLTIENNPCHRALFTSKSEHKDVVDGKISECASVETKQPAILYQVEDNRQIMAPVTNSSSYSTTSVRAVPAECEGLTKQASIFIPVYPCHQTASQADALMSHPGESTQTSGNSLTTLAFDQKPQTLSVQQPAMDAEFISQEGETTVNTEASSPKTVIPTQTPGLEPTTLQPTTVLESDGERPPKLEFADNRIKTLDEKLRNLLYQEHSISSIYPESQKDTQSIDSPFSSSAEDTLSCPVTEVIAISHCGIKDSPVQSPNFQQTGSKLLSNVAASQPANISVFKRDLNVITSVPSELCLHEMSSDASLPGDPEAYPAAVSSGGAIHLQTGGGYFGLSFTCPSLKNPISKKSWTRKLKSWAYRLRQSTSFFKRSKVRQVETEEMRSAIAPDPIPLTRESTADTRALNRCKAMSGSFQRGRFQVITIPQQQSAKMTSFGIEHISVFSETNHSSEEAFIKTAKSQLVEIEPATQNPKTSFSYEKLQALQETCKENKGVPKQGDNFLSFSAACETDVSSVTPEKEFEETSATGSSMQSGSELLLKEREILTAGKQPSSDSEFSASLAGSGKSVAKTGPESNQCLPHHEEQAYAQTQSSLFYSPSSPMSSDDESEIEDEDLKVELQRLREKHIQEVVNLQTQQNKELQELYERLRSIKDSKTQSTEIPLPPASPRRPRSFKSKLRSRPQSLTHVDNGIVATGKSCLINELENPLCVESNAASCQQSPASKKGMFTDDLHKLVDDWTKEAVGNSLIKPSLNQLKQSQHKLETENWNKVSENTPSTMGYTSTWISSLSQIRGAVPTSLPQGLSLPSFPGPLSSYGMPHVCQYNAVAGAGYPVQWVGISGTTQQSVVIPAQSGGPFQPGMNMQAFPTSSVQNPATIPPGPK
Compound,remaining activity [%]
OCC(O)CCON=C1C(c2c(O)[nH]c3ccccc23)=Nc2ccccc21 (centres unmarked),79.7
CCOC(=O)c1c(C)[nH]c(/C=C2\C(=O)Nc3ccccc32)c1C,104
Cc1ccc(NC(=O)c2ccc(CN3CCN(C)CC3)cc2)cc1Nc1nc(-c2cccnc2)cs1,99.9
Oc1ccc(-c2nc(-c3ccncc3)c(-c3ccc(F)cc3)[nH]2)cc1,101
CN(C)c1ccc(C=C2C(=O)Nc3ccccc32)cc1,98.1
Cn1sc(=O)n(Cc2ccccc2)c1=O,101
O=C(Nc1cccc(Nc2cc(Nc3cccc(C(F)(F)F)c3)ncn2)c1)C1CC1,100
CO[C@H]1C[C@@H]2CC[C@@H](C)[C@@](O)(O2)C(=O)C(=O)N2CCCC[C@H]2C(=O)O[C@H]([C@H](C)C[C@@H]2CC[C@@H](O)[C@H](OC)C2)CC(=O)[C@H](C)/C=C(\C)[C@@H](O)[C@@H](OC)C(=O)[C@H](C)C[C@H](C)/C=C/C=C/C=C/1C,102
Nc1[nH]nc2nc3ccccc3nc12,98
CNC(=O)c1cc(Oc2ccc(NC(=O)Nc3ccc(Cl)c(C(F)(F)F)c3)cc2)ccn1,99.2
O=S(=O)(c1cccc2cnccc12)N1CCCNCC1,98.1

# Block 4 — technique: two-hybrid; baseline: out of 4 tests; reading: higher = firmer interaction
# Partner: ARF10 575-693 (Arabidopsis thaliana, UniProt Q9SKN5)
# Target sequence (chain): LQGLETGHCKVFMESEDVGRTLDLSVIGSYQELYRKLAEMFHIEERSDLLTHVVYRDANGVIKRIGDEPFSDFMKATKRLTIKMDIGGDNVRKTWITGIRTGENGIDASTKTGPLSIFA
Molecule,positive tests
"IAA26 (Arabidopsis thaliana, UniProt Q8LAL2)",2
"IAA27 (Arabidopsis thaliana, UniProt Q9ZSY8)",1
"ETT (Arabidopsis thaliana, UniProt O23661)",0
